# Literature values that unrelated publications cite.
# Lines come from different studies, so protocols differ. Several values in a cell are separate wells, animals, samples, runs or records. Numbers after ± are the reported error. No end group written: not given here.
# Chain of UniProt P30536 (whole entry, looked up): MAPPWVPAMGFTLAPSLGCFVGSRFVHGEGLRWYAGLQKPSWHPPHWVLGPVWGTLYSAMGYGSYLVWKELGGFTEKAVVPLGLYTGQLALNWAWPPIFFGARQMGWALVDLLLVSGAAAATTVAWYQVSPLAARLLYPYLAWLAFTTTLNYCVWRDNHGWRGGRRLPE
# Chain of UniProt P35462 (whole entry, looked up): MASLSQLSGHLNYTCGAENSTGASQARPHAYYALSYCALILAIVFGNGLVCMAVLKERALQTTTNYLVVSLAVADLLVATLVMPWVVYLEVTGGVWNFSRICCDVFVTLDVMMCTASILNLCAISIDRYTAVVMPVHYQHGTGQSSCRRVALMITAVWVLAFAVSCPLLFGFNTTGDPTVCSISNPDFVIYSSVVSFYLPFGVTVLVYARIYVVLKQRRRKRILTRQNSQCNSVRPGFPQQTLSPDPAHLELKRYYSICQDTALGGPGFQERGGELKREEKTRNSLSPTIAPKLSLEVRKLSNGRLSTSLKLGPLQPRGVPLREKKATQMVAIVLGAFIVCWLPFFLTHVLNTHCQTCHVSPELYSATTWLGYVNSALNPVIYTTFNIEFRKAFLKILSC
# Chain of UniProt P00367 (whole entry, unmodified, looked up): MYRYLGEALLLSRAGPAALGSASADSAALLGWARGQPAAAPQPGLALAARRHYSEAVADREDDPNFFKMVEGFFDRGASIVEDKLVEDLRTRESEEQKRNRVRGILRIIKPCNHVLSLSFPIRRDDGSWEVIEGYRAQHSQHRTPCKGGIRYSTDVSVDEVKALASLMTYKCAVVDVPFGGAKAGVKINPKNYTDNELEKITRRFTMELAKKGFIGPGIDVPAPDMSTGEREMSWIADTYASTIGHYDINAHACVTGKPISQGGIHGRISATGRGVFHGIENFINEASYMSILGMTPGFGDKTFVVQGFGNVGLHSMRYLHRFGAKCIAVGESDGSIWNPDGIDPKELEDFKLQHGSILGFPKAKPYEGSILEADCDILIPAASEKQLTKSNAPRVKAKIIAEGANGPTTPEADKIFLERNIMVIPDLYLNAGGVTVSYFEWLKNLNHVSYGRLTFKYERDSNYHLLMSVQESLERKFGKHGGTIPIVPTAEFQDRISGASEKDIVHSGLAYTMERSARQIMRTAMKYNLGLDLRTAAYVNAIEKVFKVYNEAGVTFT
# Chain of UniProt O35627 (whole entry, unmodified, looked up): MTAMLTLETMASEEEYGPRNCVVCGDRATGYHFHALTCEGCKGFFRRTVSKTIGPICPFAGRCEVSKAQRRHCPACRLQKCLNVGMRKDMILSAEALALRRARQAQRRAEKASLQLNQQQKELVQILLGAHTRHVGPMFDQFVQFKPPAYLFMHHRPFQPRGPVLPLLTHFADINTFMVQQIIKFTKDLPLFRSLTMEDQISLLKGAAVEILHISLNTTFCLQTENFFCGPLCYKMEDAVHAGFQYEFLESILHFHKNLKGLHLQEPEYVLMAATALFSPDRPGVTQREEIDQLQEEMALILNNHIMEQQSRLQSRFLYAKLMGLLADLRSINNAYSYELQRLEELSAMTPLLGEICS
# Chain of UniProt P04818 (whole entry, looked up): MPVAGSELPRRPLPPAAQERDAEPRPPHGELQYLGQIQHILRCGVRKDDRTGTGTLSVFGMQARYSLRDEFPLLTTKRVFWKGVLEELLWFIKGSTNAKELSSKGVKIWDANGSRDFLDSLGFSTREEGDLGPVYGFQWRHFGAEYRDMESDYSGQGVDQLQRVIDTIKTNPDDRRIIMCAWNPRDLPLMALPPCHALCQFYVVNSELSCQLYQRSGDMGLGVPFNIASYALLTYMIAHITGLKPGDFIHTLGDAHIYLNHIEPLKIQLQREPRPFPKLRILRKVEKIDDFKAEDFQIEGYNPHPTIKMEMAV
# Chain of UniProt P14902 (whole entry, looked up): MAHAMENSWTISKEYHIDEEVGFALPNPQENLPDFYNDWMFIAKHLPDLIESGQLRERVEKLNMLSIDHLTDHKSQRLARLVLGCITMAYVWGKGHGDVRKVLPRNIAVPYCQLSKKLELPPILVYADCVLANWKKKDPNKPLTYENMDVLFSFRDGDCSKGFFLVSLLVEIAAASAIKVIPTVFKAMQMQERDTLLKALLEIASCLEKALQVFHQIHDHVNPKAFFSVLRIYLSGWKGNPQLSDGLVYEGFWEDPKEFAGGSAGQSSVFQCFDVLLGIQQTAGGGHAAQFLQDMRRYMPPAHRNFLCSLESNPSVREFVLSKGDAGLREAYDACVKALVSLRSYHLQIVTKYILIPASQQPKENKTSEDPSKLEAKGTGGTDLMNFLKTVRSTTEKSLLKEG
# Chain of UniProt Q6RI86 (whole entry, looked up): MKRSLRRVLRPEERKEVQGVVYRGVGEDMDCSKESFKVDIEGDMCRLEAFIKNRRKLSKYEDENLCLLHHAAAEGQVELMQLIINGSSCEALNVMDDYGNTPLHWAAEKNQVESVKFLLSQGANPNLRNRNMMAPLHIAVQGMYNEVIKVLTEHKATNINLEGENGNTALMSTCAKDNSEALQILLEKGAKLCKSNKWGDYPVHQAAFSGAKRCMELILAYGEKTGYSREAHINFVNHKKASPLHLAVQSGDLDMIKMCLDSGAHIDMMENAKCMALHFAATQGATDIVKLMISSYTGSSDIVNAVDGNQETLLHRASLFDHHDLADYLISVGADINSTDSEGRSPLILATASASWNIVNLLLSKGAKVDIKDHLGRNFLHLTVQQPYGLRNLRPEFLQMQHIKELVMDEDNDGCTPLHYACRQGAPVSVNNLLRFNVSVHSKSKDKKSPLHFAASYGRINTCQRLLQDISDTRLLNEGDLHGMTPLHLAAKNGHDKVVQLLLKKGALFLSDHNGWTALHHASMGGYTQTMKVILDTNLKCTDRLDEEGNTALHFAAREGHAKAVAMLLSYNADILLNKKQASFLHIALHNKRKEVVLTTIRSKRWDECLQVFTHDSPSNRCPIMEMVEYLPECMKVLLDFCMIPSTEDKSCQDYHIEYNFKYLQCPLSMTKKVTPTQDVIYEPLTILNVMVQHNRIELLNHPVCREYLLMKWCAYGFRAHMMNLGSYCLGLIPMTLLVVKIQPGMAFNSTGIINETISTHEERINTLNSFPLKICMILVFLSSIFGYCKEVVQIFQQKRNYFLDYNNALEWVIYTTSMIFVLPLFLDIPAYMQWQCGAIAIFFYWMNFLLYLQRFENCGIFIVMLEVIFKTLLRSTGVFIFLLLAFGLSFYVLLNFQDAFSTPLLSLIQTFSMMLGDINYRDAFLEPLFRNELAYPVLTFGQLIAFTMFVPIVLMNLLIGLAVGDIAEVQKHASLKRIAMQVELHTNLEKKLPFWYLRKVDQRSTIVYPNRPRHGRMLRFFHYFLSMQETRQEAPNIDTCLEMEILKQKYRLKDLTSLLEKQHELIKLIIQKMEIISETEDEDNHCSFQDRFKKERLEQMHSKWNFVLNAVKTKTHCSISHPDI
Molecule,target or system,assay,system,setting,scale,endpoint,value
CC[C@H](C)[C@H](NC(=O)[C@H](CCCCN)NC(=O)[C@H](Cc1c[nH]cn1)NC(=O)[C@@H](N)CCCNC(=N)N)C(=O)N[C@@H](CC(C)C)C(=O)N[C@@H](Cc1c[nH]cn1)C(=O)N[C@@H](CCCNC(=N)N)C(=O)N[C@@H](CC(C)C)C(=O)N[C@@H](CC(C)C)C(=O)N[C@@H](CCC(N)=O)C(=O)N[C@@H](CCC(=O)O)C(=O)NCC(=O)N[C@@H](CO)C(=O)O,"Nuclear receptor subfamily 1 group I member 3, with RXR (Mus musculus, UniProt O35627)","binding, isothermal titration calorimetry",,"pH 7.2, 25°C, added: TCPOBOP, fourfold excess",,−TΔS,1.5 kcal/mol
C[C@@H]1[C@H](c2c(F)ccc(F)c2F)C[C@H](NC(=O)c2cnc3c(c2)C[C@@]2(C3)C(=O)Nc3ncccc32)C(=O)N1CC(F)(F)F,CGRP receptor,inhibitor,plasma,,,EC90,14 nM
COc1ccccc1CN(C(C)=O)c1cnccc1Oc1ccccc1,"Translocator protein (TSPO, Homo sapiens, UniProt P30536)",,human brain tissue,low-affinity binders,,Ki,~200 nM and 188 nM
C[C@@H](Oc1cc(-c2cnn(C3CCNCC3)c2)cnc1N)c1c(Cl)ccc(F)c1Cl,hiPSC-derived cardiomyocytes,contractility,,72 h,,lowest effective concentration,1.91 µM
Nc1nc2c(nc(Br)n2[C@@H]2O[C@@H]3COP(=O)(O)O[C@H]3[C@H]2O)c(=O)[nH]1,PDE10,"cyclic nucleotide hydrolysis, substrate or inhibitor, isothermal titration calorimetry",,,,Km or Ki,23700 nM
COc1cc(O)c(C(=O)/C=C/c2ccccc2)c(OC)c1,NF-κB,"reporter gene and DNA binding, inhibitor",,added: TNFα,,effective concentration,175 µM
Oc1ccc(/C=C/c2cccc3ccccc23)cc1O,"Transthyretin, fibrils (TTR, Homo sapiens, UniProt P02766)",fluorescence,,,reference: native over misfolded protofibrillar TTR,emission maximum shift,> 100 nm
CCCCC/C=C\C[C@H](O)/C=C/C=C\C/C=C\CCCC(=O)O,human 15-lipoxygenase-1,substrate specificity kcat/KM AA/LA,,,,AC50,1100 ± 100 nM
CCCc1nn(C)c2c(=O)[nH]c(-c3cc(S(=O)(=O)N4C[C@@H](C)N[C@@H](C)C4)ccc3OCC)nc12,PDE5,"enzyme activity, inhibitor",,,reference: comparable products,relative potency,1.47 fold
N[C@@H](Cc1c[nH]c2ccccc12)C(=O)O,"Indoleamine 2,3-dioxygenase 1, ferric form (IDO1, Homo sapiens, UniProt P14902)",heme redox potential,,,reference: substrate-free enzyme,redox potential shift,~46 mV
CC(C)NCc1ccc(C[C@@H]2NC(=O)[C@@H](N(C)C(=O)c3ccc4ccccc4c3)NC(=O)[C@H](Cc3ccccc3)NC(=O)[C@H](Cc3ccccc3)NC(=O)[C@H](CCCCN)NC(=O)[C@@H](N)CSSC[C@@H](C(=O)O)NC(=O)[C@H](CO)NC(=O)[C@H]([C@@H](C)O)NC(=O)[C@H](Cc3ccc(O)cc3)NC(=O)[C@H]([C@@H](C)O)NC2=O)cc1,"Somatostatin receptor type 1 (SSTR1, Homo sapiens, UniProt P30872)",,,,reference: compound over parent peptide,affinity increase,5 fold
CS(=O)(=O)CCNCc1ccc(-c2ccc3ncnc(Nc4ccc(OCc5cccc(F)c5)c(Cl)c4)c3c2)o1,hiPSC-derived cardiomyocytes,,,"72 h, tested 0 to 100 µM",,beating cessation concentration,33 µM
Cn1cnc2ncn(Cc3nc(CCc4ccc(Cl)cc4)no3)c(=O)c21,"Transient receptor potential cation channel subfamily A member 1 (Trpa1, Rattus norvegicus, UniProt Q6RI86)",antagonist,"rat AITC-induced nocifensive model, plasma",,,IC90,1740 ± 150 nM
CNC(C)(C)C(=O)O,rat hippocampal neurons,"KCl-stimulated uptake, substrate",,"5 min, added: 60 mM KCl",,Km,~40 µM
O=c1c2nc(Br)n3c2ncn1[C@@H]1O[C@H](COP(=O)(O)OP(=O)(O)OC[C@H]2O[C@@H]3[C@H](O)[C@@H]2O)[C@@H](O)[C@H]1O,"cADPR receptor, sea urchin",,sea urchin egg homogenate,concentration not given,,activity,inactive
O=c1c2nc(Br)n([C@@H]3O[C@@H]4COP(=O)(O)O[C@H]4[C@H]3O)c2nc2[nH]c(-c3ccccc3)cn12,PDE1A,"cyclic nucleotide hydrolysis, substrate or inhibitor, isothermal titration calorimetry",,,,Km or Ki,2400 nM
"C[C@]12CCC[C@@H]1[C@H]1CCc3cc(O)ccc3[C@@H]1CC2 (single isomer, unassigned)",HT-22,cell protection,,added: iodoacetic acid 40 µM,,EC50,129 nM
O=P(O)(O)O,"ADP-forming acetyl-CoA synthetase (Entamoeba histolytica, UniProt C4LUV9)",substrate,,,,Km,1770 ± 180 µM
C[C@]12CC=C3c4ccc(O)cc4CC[C@H]3[C@@H]1CC[C@@H]2O,HT-22,cell protection,,added: glutamate 10 mM,,EC50,1020 nM
Nc1nc2c(nc(Sc3ccc(Cl)cc3)n2C2O[C@@H]3COP(=O)(O)O[C@H]3[C@H]2O)c(=O)[nH]1 (stereo in doubt),PDE10,"cyclic nucleotide hydrolysis, substrate or inhibitor, isothermal titration calorimetry",,,,Km or Ki,6040 nM
NC(=O)c1ccc[n+]([C@@H]2O[C@H](COP(=O)([O-])OP(=O)(O)OC[C@H]3O[C@@H](n4cnc5c(N)ncnc54)[C@H](O)[C@@H]3O)[C@@H](O)[C@H]2O)c1,"Inosine-5'-monophosphate dehydrogenase 2 (IMPDH2, Homo sapiens, UniProt P12268)",uncompetitive substrate inhibition,,dinucleotide intercept constant,,Kii,0.59 mM
O=C1c2ccccc2-c2c1c1ccc([N+](=O)[O-])cc1c(=O)n2CCCN1CCOCC1,NCI-60 panel mean,cell growth,,,,GI50,632 ± 29 nM
NC(=O)c1ccc[n+]([C@@H]2O[C@H](COP(=O)([O-])OP(=O)(O)OC[C@H]3O[C@@H](n4cnc5c(N)ncnc54)[C@H](O)[C@@H]3O)[C@@H](O)[C@H]2O)c1,human SARM1 TIR domain,"substrate, LC-MS",,,,Km,24 µM
O=c1cc(-c2ccccc2)oc2cc(O)c(O)c(O)c12,catechol O-methyltransferase,substrate,,,,Km,1970 ± 389 µM
Nc1cc[nH]c(=O)n1,nucleoside transporter C1,,"Trypanosoma brucei, procyclic forms",,,Km,0.048 ± 0.009 µM
CO[C@@H]1[C@@H]2OP(=O)(O)OC[C@H]2O[C@H]1n1c(Sc2ccc(Cl)cc2)nc2c(N)ncnc21,PDE6,"cyclic nucleotide hydrolysis, substrate or inhibitor, isothermal titration calorimetry",,,,Km or Ki,3510 nM
O=P(O)(O)OC[C@H]1O[C@H](OP(=O)(O)OP(=O)(O)O)[C@H](O)[C@@H]1O,Trypanosoma cruzi HGPRT isoform A,"enzyme activity, substrate",,"IMP formation, added: hypoxanthine 60 µM",,Km,31 ± 5 µM
CCOC(=O)c1ncn2c1CN(C)C(=O)c1cc(F)ccc1-2,human GABAA α4β3γ2 receptor,"modulator, two-electrode voltage clamp",Xenopus oocytes,"saturating, added: GABA EC50",reference: GABA response,efficacy,132 ± 6%
O=C(O)c1cc2cc(Br)ccc2oc1=O,"Glutamate NMDA receptor; Grin1/Grin2b (Grin1/Grin2b, Rattus norvegicus, UniProt P35439+Q00960)",,,concentration not given,,inhibition,100%
C=C(O[C@@H]1C=C(C(=O)O)C=C[C@H]1O)C(=O)O,"ICS1 (Arabidopsis thaliana, UniProt Q9S7H8)",substrate,,,,Km,90 µM
Nc1nc(N)c2c(n1)[nH]c1cccc(Sc3ccccc3)c12,"Thymidylate synthase (TYMS, Homo sapiens, UniProt P04818)",inhibitor,,,,IC50,540 nM
COc1ccc(/C=C\c2cc(OC)c(OC)c(OC)c2)cc1O,tubulin,"[3H]colchicine binding, inhibitor",,"5.0 µM, added: 1.0 µM tubulin, 5.0 µM [3H]colchicine",,inhibition,95 to 100%
O=C1c2cccc3c2[C@H](CCC3)CN1[C@@H]1CN2CCC1CC2,,,"cancer patients, plasma","oral, dose not given, netupitant-palonosetron fixed combination, added: cyclophosphamide 500-1000 mg/m^2 IV",,AUC(0-inf),48.1 ng·h/mL
Nc1nc2c(ncn2[C@@H]2O[C@@H]3COP(=O)(O)O[C@H]3[C@H]2O)c(=O)[nH]1,PDE1B,"cyclic nucleotide hydrolysis, substrate or inhibitor, isothermal titration calorimetry",,,,Km or Ki,5350 nM
"KCNTATCATQRLANFLVHSSNNFGAILSSTNVGSNTY (amylin (human); not fully specified (C-terminus, bridges); cysteine pairing not given here; sequence looked up)","AMY3 receptor, human",,peptide,,reference: compound over human αCGRP,potency ratio,10 fold
Nc1ncnc2c1ncn2[C@@H]1O[C@H](COP(=O)(O)OP(=O)(O)O)[C@@H](O)[C@H]1O,"GLUD1 (Homo sapiens, UniProt P00367, S501P)","enzyme activity, activator",,"mutant enzyme, reductive amination",,EC50,21000 nM
COc1ccc(N2CCC3(CCN(CCCSc4nnc(-c5ccccc5)n4C)CC3)CC2)cc1,"D(3) dopamine receptor (DRD3, Homo sapiens, UniProt P35462)",,,,reference: D2 Ki over D3 Ki,selectivity ratio,~1000
Nc1ncnc2c1nc(Br)n2[C@@H]1O[C@@H]2COP(=O)(O)O[C@H]2[C@H]1O,PDE1B,"cyclic nucleotide hydrolysis, substrate or inhibitor, isothermal titration calorimetry",,,,Km or Ki,63600 nM
CC(=O)[C@H]1CC[C@H]2[C@@H]3CCC4=CC(=O)CC[C@]4(C)[C@H]3CC[C@]12C,CYP21A2,"21-hydroxylation, substrate",,,,Km,0.21 ± 0.03 µM

# Some of these lines once more:
Molecule,target or system,assay,system,setting,scale,endpoint,value
CCCc1nn(C)c2c(=O)[nH]c(-c3cc(S(=O)(=O)N4C[C@@H](C)N[C@@H](C)C4)ccc3OCC)nc12,PDE5,"enzyme activity, inhibitor",,,reference: comparable products,relative potency,1.47 fold
"KCNTATCATQRLANFLVHSSNNFGAILSSTNVGSNTY (amylin (human); not fully specified (C-terminus, bridges); cysteine pairing not given here; sequence looked up)","AMY3 receptor, human",,peptide,,reference: compound over human αCGRP,potency ratio,10 fold
O=c1c2nc(Br)n([C@@H]3O[C@@H]4COP(=O)(O)O[C@H]4[C@H]3O)c2nc2[nH]c(-c3ccccc3)cn12,PDE1A,"cyclic nucleotide hydrolysis, substrate or inhibitor, isothermal titration calorimetry",,,,Km or Ki,2400 nM
Nc1nc2c(nc(Sc3ccc(Cl)cc3)n2C2O[C@@H]3COP(=O)(O)O[C@H]3[C@H]2O)c(=O)[nH]1 (stereo in doubt),PDE10,"cyclic nucleotide hydrolysis, substrate or inhibitor, isothermal titration calorimetry",,,,Km or Ki,6040 nM
Nc1ncnc2c1nc(Br)n2[C@@H]1O[C@@H]2COP(=O)(O)O[C@H]2[C@H]1O,PDE1B,"cyclic nucleotide hydrolysis, substrate or inhibitor, isothermal titration calorimetry",,,,Km or Ki,63600 nM
N[C@@H](Cc1c[nH]c2ccccc12)C(=O)O,"Indoleamine 2,3-dioxygenase 1, ferric form (IDO1, Homo sapiens, UniProt P14902)",heme redox potential,,,reference: substrate-free enzyme,redox potential shift,~46 mV
